Experimental data of several laboratories.
Protocols differ between the studies behind these lines. ± gives the spread as reported.
SNCA pre-formed fibrils: Alpha-synuclein, pre-formed fibrils (SNCA, Homo sapiens, UniProt P37840)
Urease: Urease (Canavalia ensiformis, UniProt P07374)
DNA polymerase catalytic subunit: DNA polymerase catalytic subunit (Human cytomegalovirus, UniProt P08546)
crk3 with CYC6: crk3, with CYC6 (Leishmania mexicana, UniProt O15851)
KDR: Vascular endothelial growth factor receptor 2 (KDR, Homo sapiens, UniProt P35968)

| SMILES | target or system | test | system | conditions | how to read | quantity | value |
| --- | --- | --- | --- | --- | --- | --- | --- |
| CN1CCN(c2ccc3cc(NC(=O)Nc4cccc(C(=O)NO)c4)ccc3c2)CC1 | SNCA pre-formed fibrils | binding to RAGE, inhibitor, ELISA |  | added: FLAG-α-syn PFFs 100 nM |  | IC50 | 4.9 µM |
| Brc1ccccc1-c1cc(CN2c3ccccc3C=Cc3ccccc32)on1 | Urease | enzyme activity, inhibitor |  |  |  | IC50 | > 27 µM |
| CCN1/C(=C/C(C)=O)Sc2ccc(F)cc21 | Adra1b (Rattus norvegicus, UniProt P15823) | ligand displacement, radioligand |  |  |  | IC50 | > 30 µM |
| CC1(F)CN(C(=O)Cn2c(=O)c(C(=O)NCc3ccc(Cl)cc3)cc3nc(N4CCN(CCN)C4=O)cnc32)C1 | DNA polymerase catalytic subunit | enzyme activity |  | single determination |  | IC50 | 0.129 µM |
| CN1CCN(c2cccc3cc(NC(=O)Nc4cccc(C(=O)NO)c4)ccc23)CC1 | SNCA pre-formed fibrils | binding to mouse LAG3 D1, inhibitor, ELISA |  | added: FLAG-α-syn PFFs 100 nM |  | IC50 | 1.3 µM |
| COc1cc(OC)c(/N=N/c2ccc(C(=O)NO)cc2C(F)(F)F)c(OC)c1 | Urease | enzyme activity, inhibitor, absorbance |  | pH 7.3 |  | IC50 | > 512 µM |
| O=C(O)P(=O)(O)O | DNA polymerase catalytic subunit | enzyme activity, inhibitor |  |  |  | IC50 | 4.4 µM |
| Cc1cc(C)nc(NC(=S)N2CCN(c3ccc(C(F)(F)F)cn3)CC2)c1 | HSD17B4 (Homo sapiens, UniProt P51659) | enzyme activity, inhibitor |  |  |  | IC50 | > 57 µM |
| O=[N+]([O-])c1cccc(-c2cc(CN3c4ccccc4C=Cc4ccccc43)on2)c1 | Urease | enzyme activity, inhibitor |  |  |  | IC50 | > 27 µM |
| COc1cc(OC)c2c(=O)cc(-c3cc(C)c(OCCCN4CCN(C)CC4)c(C)c3)oc2c1 | Bromodomain testis-specific protein, BD1 (BRDT, Homo sapiens, UniProt Q58F21) | cell-free assay, TR-FRET |  |  |  | IC50 | 2.32 µM |
| [C-]#[N+]CCCCCCOc1ccc2c(-c3ccccc3C(=O)OCC)c3ccc(=O)cc-3oc2c1 | ALOX15 (Homo sapiens, UniProt P16050) | enzyme activity, inhibitor, absorbance |  |  |  | IC50 | 29.3 µM |
| COc1ccc(-c2cnn3ccc(Nc4cc(OC)c(OC)c(OC)c4)nc23)cc1OC | crk3 with CYC6 | enzyme activity, inhibitor, radiometric |  | added: Leishmania major CYC6 cyclin, 1 µM ATP |  | IC50 | 6 µM |
| CCn1nc(Cl)c2c1-c1cnc(N)c(c1)O[C@H](C)c1cc(F)ccc1-c1nn(C)cc1C2 | PTK2B (Homo sapiens, UniProt Q14289) | enzyme activity, inhibitor, radiometric |  |  |  | IC50 | 0.014 µM |
| CSc1ccc(NC(=O)c2cnn(-c3ccc([N+](=O)[O-])cc3)c2C(F)(F)F)cc1 | PTGS1 (Ovis aries, UniProt P05979) | enzyme activity, inhibitor |  |  |  | IC50 | 6.67 µM |
| N=C(NCC[C@H](NC(=O)c1noc(-c2cc(F)ccc2F)n1)c1nc2ccccc2[nH]1)c1ccc([N+](=O)[O-])o1 | STING1 (Homo sapiens, UniProt Q86WV6, H232R) | reporter gene |  |  |  | IC50 | 1.7 µM |
| CCN(CC)CC(=O)Nc1cccc(-n2cc(-c3ccc4ccc(-c5cn(-c6cccc(NC(=O)CN(CC)CC)c6)nn5)cc4c3)nn2)c1 | KDR | enzyme activity, inhibitor |  |  |  | IC50 | > 10 µM |
| COc1cc(O)c2c(c1)CCC21CCC(OC(C)=O)CC1 (centres unmarked) | rat intestinal maltase | inhibitor | rat intestinal acetone powder | 10 min, 37 °C, added: maltose 10 mM |  | IC50 | 1410 ± 80 µM |
| Cc1ncsc1-c1ccc(C(C)NC(=O)C2CC(O)CN2C(=O)C(NC(=O)CCCCCCCCCCN2CCCC(Nc3ncc(Cl)c(Nc4ccccc4S(=O)(=O)C(C)C)n3)C2)C(C)(C)C)cc1 (centres unmarked) | 22Rv1 | RNA-seq, refers to: ZNF555 mRNA |  | concentration not given | relative to: DMSO | log2 fold change | -1.8 |
| CN1CCCNC(=O)c2cccc(c2)C(=O)NCCCN(C)CCCNc2cccc3c2C(=O)c2cccc(c2C3=O)NCCC1 | SAS | RNA-seq, refers to: AZIN1-AS1 mRNA |  | 1 µM, 6 h | relative to: untreated cells | log2 fold change | 1.38 |
| COc1cc(OC)c(/N=N/c2ccc(C(=O)NO)cc2)c(OC)c1 | Urease | enzyme activity, inhibitor, absorbance |  | pH 7.3 |  | IC50 | 19 µM |
| Cc1nn(-c2cccc(N)c2)c(=O)c2cnc(Nc3ccc(N4CCNCC4)cc3)nc12 | PAK2 (Homo sapiens, UniProt Q13177) | enzyme activity, inhibitor |  |  |  | IC50 | 3.4 µM |
| CC(C)(COC(=O)/C=C/c1ccc(Cl)c(Cl)c1)CC1=C(O)C(=O)c2ccccc2C1=O | MAL12 (Saccharomyces cerevisiae S288c, UniProt P53341) | enzyme activity, inhibitor |  |  |  | IC50 | 10 µM |
| COc1ccc(CNc2nc3c(cnn3C(C)(C)C)c(=O)n2Cc2cccc(F)c2)cn1 | PDE1C (Homo sapiens, UniProt Q14123) | enzyme activity, inhibitor, radiometric |  |  |  | IC50 | 0.0042 µM |
| CCN(CC)CC#CCNc1ccnc2cc(Cl)ccc12 | Salmonella typhimurium | mini-Ames test | TA97a | 125.0 µg/well, without S9 |  | revertants per well | 5 |

| SMILES | target or system | test | system | conditions | how to read | quantity | value |
| --- | --- | --- | --- | --- | --- | --- | --- |
| Cc1cc(NC2CCN(C)CC2)ccc1-c1cc2c(N3CCC[C@H](C(=O)NCc4ccc(OC(F)(F)F)cc4)C3)ncnc2[nH]1 | KDR | enzyme activity, inhibitor, mobility shift |  |  |  | IC50 | 2.09 µM |
| CC(C)C[C@H](NC(=O)[C@H](Cc1ccc(CN)cc1)NC(=O)[C@H](Cc1ccccc1)N=[N+]=[N-])C(=O)N[C@@H](CCC1CCCCC1)C(=O)[C@@]1(C)CO1 | Proteasome subunit beta type-10 (Homo sapiens, UniProt P40306) | inhibitor, biochemical |  |  |  | IC50 | 0.0134 µM |
| CNS(=O)(=O)Nc1nccc(Cc2c(C)c3ccc(Oc4ncccc4F)cc3oc2=O)c1F | RBE | cell viability |  | 7 days |  | IC50 | 0.025 µM |
| CN(Cc1ccccc1)C(=O)CN1CCN(CC(=O)[O-])CCN(Cc2cccc(C(=O)[O-])n2)CC1.[177Lu+3] |  |  | mouse, bone | intravenous, 1 h |  | tracer uptake | 0.43 %ID/g |
| C=CC(=O)Nc1cccc(Cn2ncc3cnc(Nc4cnn(CCOC)c4)nc32)c1 | TNNI3K human | binding, KINOMEscan |  | 100 nM | lower = stronger binding | percent of control | 97% |
| CCC1(CC)CC(=O)N(C2CCOc3ccc(C(=O)NC4CC(C)(C)Oc5ccccc54)cc32)C(=N)N1 (centres unmarked) | Potassium voltage-gated channel subfamily KQT member 1, with KCNE1 (KCNQ1, Homo sapiens, UniProt P51787) | IKs current, inhibitor, automated patch clamp | HEK293 |  |  | IC50 | > 30 µM |
| CC(C)n1cc[nH]c1=S | Tyrosine-protein kinase SYK, tandem SH2 domains (SYK, Homo sapiens, UniProt P43405) | binding, inhibitor, TR-FRET |  | added: FITC-FCER1G phospho-ITAM peptide |  | IC50 | 9.7 ± 4.3 µM |
| Cc1cncn1Cc1ccc(Oc2cccc(Cl)c2)cc1 | QPCT (Homo sapiens, UniProt Q16769) |  |  |  |  | IC50 | 0.008 µM |
| O=C(Nc1cc(Cc2ccccc2)[nH]n1)c1ccccc1 | crk3 with CYC6 | enzyme activity, inhibitor, radiometric |  | added: Leishmania major CYC6 cyclin, 1 µM ATP |  | IC50 | 9.2 µM |
| CCOc1cc(CN2CCC3(CC2)CN(c2ccc(C(=O)O)cc2)C(=O)N3)c(C2CC2)cc1C | SSTR5 (Homo sapiens, UniProt P35346, L174A) | cAMP level, antagonist, GloSensor | AD293 | L174A mutant, bandwidth 4.60, added: CST17 EC80 and forskolin |  | IC50 | 0.0191 µM |
| CC(C)(C)n1ncc2c(=O)n(Cc3cccc(F)c3)c(NCc3ccc(F)cn3)nc21 | PDE2A (Homo sapiens, UniProt O00408) | enzyme activity, inhibitor |  |  |  | IC50 | > 10 µM |
| CC(C)OCCOCc1ccc(OCC(O)CN(N=O)C(C)C)cc1 (centres unmarked) | Salmonella typhimurium | Ames test | TA1535 | 500 µg/plate, 30 % hamster S9 | relative to: solvent control | revertant fold increase | 9.9 fold |
| Fc1ccccc1-c1cc(CN2c3ccccc3C=Cc3ccccc32)on1 | Urease | enzyme activity, inhibitor |  |  |  | IC50 | 11.9 µM |
| CSC(=S)N/N=C(\C)c1ccc(Nc2nnc(-c3ccc(Cl)cc3)c3ccccc23)cc1 | KDR | cell-free assay, inhibitor |  |  |  | IC50 | 0.892 µM |
| CCCC[C@H](NC(=O)COCCOCCNC(=O)CN1CCN(CC(=O)O)CCN(CC(=O)O)CC1)C(=O)N[C@H]1CC(=O)NCCCC[C@@H](C(N)=O)NC(=O)[C@H](Cc2c[nH]c3ccccc23)NC(=O)[C@H](CCCNC(=N)N)NC(=O)[C@@H](Cc2ccccc2)NC(=O)[C@H](Cc2c[nH]cn2)NC1=O [technetium-99m labelled] |  |  | C57 mouse, skin | intravenous, 0.037 MBq, 24 h |  | tissue uptake | 0.09 ± 0.02 %ID/g |
| Cc1cc(C)c(CNC(=O)c2c(C)n(C(C)C3CCC(NC4(C)COC4)CC3)c3ccccc23)c(=O)[nH]1 (centres unmarked) | Histone-lysine N-methyltransferase EZH2, PRC2 pentameric complex (EZH2, Homo sapiens, UniProt Q15910) | enzyme activity, inhibitor |  | added: H3K27me3 activating peptide |  | IC50 | 0.00019 µM |
| Nc1ncc(-c2cc(-c3cnn(CC(F)(F)F)c3)ncc2F)nc1C(=O)NC1CNCC(F)C1 (centres unmarked) | VPS34 | KINOMEscan |  | 1 µM | relative to: DMSO control | remaining binding | 80% |
| FC(F)(F)c1cc2nc(c1)CNCc1cc(C(F)(F)F)cc(n1)CNC2.[Cu+2] |  | superoxide dismutase-like activity, McCord-Fridovich NBT | cell-free system | pH 7.8, added: xanthine/xanthine oxidase |  | IC50 | 0.059 µM |
| C=CC(=O)N1C[C@H](C)N(c2nc(OC[C@@]34CCCN3C[C@H](F)C4)nc3c(F)c(-c4ccc(F)c5sc(N)c(C#N)c45)c(C(F)(F)F)cc23)C[C@H]1C | GTPase KRas, GppNHp; with RAF1 RBD (KRAS, Homo sapiens, UniProt P01116, G12C) |  |  |  |  | IC50 | 0.018 ± 0.004 µM |
| CN1C=C(C(N)=O)[C@@H]2C[C@H](O)[C@@](NC(=O)CS(N)(=O)=O)(C(=O)O)[C@@H]2C1 | CA1 (Homo sapiens, UniProt P00915) | enzyme activity, inhibitor, absorbance |  |  |  | IC50 | 25 µM |
| C[C@H](C(=O)O)n1nc(Cn2cc3cc(OCCF)c(Cl)cc3n2)c2ccccc2c1=O | S1PR1 (Homo sapiens, UniProt P21453) | ligand displacement, radioligand |  | cell membranes |  | IC50 | > 1 µM |
| CC(C)=CCc1cc(C(=O)/C=C/c2ccc(O)cc2)c(O)cc1O |  | phase I metabolism, substrate | dog liver microsomes |  |  | Km | 1.58 ± 0.22 µM |
| COC1CN([C@H]2CC[C@H]([C@@]3(C)Oc4c(Cl)cc(C(=O)NCc5c(SC)cc(C)[nH]c5=O)c(C)c4O3)CC2)C1 |  | RNA-seq, refers to: BAIAP2 mouse homolog | mouse, HT-1376 xenograft, whole blood | dose not given | relative to: vehicle | log2 fold change | 0.399 |

Repeated from above:
| SMILES | target or system | test | system | conditions | how to read | quantity | value |
| --- | --- | --- | --- | --- | --- | --- | --- |
| CN(Cc1ccccc1)C(=O)CN1CCN(CC(=O)[O-])CCN(Cc2cccc(C(=O)[O-])n2)CC1.[177Lu+3] |  |  | mouse, bone | intravenous, 1 h |  | tracer uptake | 0.43 %ID/g |
| C=CC(=O)Nc1cccc(Cn2ncc3cnc(Nc4cnn(CCOC)c4)nc32)c1 | TNNI3K human | binding, KINOMEscan |  | 100 nM | lower = stronger binding | percent of control | 97% |
| CCC1(CC)CC(=O)N(C2CCOc3ccc(C(=O)NC4CC(C)(C)Oc5ccccc54)cc32)C(=N)N1 (centres unmarked) | Potassium voltage-gated channel subfamily KQT member 1, with KCNE1 (KCNQ1, Homo sapiens, UniProt P51787) | IKs current, inhibitor, automated patch clamp | HEK293 |  |  | IC50 | > 30 µM |
| CC(C)n1cc[nH]c1=S | Tyrosine-protein kinase SYK, tandem SH2 domains (SYK, Homo sapiens, UniProt P43405) | binding, inhibitor, TR-FRET |  | added: FITC-FCER1G phospho-ITAM peptide |  | IC50 | 9.7 ± 4.3 µM |
| Cc1cncn1Cc1ccc(Oc2cccc(Cl)c2)cc1 | QPCT (Homo sapiens, UniProt Q16769) |  |  |  |  | IC50 | 0.008 µM |
